Experimental data from different studies.
Parts stem from different laboratories: compare values within a part only. Substitutions count along the parent as printed.
UniProt P08172, sequence (whole entry, looked up): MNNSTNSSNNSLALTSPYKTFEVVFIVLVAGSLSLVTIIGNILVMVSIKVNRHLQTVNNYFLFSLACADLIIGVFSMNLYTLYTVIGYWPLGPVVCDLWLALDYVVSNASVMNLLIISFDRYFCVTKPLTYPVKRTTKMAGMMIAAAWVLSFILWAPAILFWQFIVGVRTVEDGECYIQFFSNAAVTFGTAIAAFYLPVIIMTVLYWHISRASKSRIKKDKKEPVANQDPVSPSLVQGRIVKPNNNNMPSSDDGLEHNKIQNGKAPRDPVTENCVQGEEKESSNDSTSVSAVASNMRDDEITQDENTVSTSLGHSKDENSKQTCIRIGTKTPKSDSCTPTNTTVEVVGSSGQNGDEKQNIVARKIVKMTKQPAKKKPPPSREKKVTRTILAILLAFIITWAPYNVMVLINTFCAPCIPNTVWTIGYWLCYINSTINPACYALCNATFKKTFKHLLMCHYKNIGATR

Sample 1
Target: HLA class I histocompatibility antigen, A alpha chain, allele A*80:01 (Homo sapiens, UniProt P04439)
Read-out: peptide-MHC binding
Form: peptide
Tested at: concentration not given
For `RLDARLQVL`, binding read “inactive”.
`SLLHESTLK`: binding “inactive”.
`RADEINAIL` — result for binding: “inactive”.
`HPYVFCALL` — result for binding: “inactive”.

Sample 2
Target: Prothrombin, mature alpha-thrombin (F2, Homo sapiens, UniProt P00734)
Method: aptamer microarray, sandwich
Form: DNA with 2'F-ANA
Matrix: in vitro
Tested at: 200 nM
Setting: whole 15-mer aptamer, many near background
Together with: Cy3 exosite-II aptamer, 400 nM
Direction: higher = stronger binding
Strand: GGTTGGTGTGGTTGG
`2'F-ANA at 1 4 6 8 9`: “mean fluorescence intensity” 125 a.u.
Under “mean fluorescence intensity”, `2'F-ANA at 4 7 8 9 11 14` is recorded as 93.8 a.u.
`2'F-ANA at 4 5 7 9 11 12 15` — result for “mean fluorescence intensity”: 95.1 a.u.
Under “mean fluorescence intensity”, `2'F-ANA at 1 3 7 8 9 15` is recorded as 379 a.u.
For `2'F-ANA at 2 3 5 9 10 13 14 15`, “mean fluorescence intensity” read 49.6 a.u.
`2'F-ANA at 3 5 6 8 10 11 13`: “mean fluorescence intensity” 51.9 a.u.
`2'F-ANA at 1 2 3 4 5 8 9 10 13 15`: “mean fluorescence intensity” 83.2 a.u.
`2'F-ANA at 2 4 7 8 10 13 14` — result for “mean fluorescence intensity”: 70 a.u.

Sample 3
Target: Ras GTPase-activating protein-binding protein 1, full length (G3BP1, Homo sapiens, UniProt Q13283)
UniProt Q13283, sequence (whole entry, looked up): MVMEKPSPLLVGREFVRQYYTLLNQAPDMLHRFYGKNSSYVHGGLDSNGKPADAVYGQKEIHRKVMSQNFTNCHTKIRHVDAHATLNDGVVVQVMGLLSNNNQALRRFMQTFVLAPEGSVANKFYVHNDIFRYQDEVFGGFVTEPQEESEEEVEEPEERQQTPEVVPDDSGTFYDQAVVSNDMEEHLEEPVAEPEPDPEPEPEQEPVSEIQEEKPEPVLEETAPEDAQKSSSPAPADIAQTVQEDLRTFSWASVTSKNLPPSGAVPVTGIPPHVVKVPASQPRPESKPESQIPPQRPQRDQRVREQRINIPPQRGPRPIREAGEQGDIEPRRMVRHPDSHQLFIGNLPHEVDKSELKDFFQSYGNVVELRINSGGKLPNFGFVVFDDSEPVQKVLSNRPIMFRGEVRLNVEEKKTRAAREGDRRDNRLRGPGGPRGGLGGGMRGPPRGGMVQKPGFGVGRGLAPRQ
Method: RNA Bind-n-Seq
Form: RNA
Matrix: in vitro
Tested at: 200 nM
Setting: whole 134-nt RNA, ends assumed
Together with: 150 mM LiCl
Reference: input library
Direction: higher = stronger binding
All molecules: 7-deaza-guanosine replaces G
The log2 enrichment of `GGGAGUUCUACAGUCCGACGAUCUGGAGCUACAGAUGGUGUCCUUCCUGCCAGGUGUGUGUGGAGGCCAGUAUGAAGCUGAAAAAGCAGGUGACAGUGUGUGGGGCUGCCAUCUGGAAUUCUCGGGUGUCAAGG` is reported as 0.748.
`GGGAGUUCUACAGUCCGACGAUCCAAGUCCUGUGCUACACAUCGUAUGUACCGAAUCGGGUUUUUUUGGGAGGGAGGGAAAGUAUUAUGUUACGCCGUUCGGAUCUGCACUUCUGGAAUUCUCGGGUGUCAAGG` has a log2 enrichment of 0.414.
The log2 enrichment of `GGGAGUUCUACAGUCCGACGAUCAGUCCUGUGCUACACAUCGUAUGUACCGAAUCGGGGAAAAAAAGGGGAGGGGUGGGGAAAGUAUUAUGUUACGCCGUUCGGAUCUGCACUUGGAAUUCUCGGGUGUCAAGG` is reported as -0.189.
With `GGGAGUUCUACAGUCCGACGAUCUGGGAGGUGGAUUUUGUUUAUUUUUUUAGUUCAUUUCCAGGGGUGGGAAUUUUUUUUUAAUAUGUGUCAUGAAUAAAGUUGUUUUUGAAAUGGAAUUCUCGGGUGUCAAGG` the log2 enrichment was -1.11.
`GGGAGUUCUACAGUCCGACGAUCCAAGUCCUGUGCUACACAUCGUAUGUACCGAAUCGGGGAAAAGGAAAAGGAAAAGGAAAGUAUUAUGUUACGCCGUUCGGAUCUGCACUUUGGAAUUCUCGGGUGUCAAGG` gave a log2 enrichment of -0.994.
The log2 enrichment of `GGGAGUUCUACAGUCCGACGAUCCAAGUCCUGUGCUACACAUCGUAUGUACCGAAUCGGAAAAAAAGGUUUUUGGAGGAAAGUAUUAUGUUACGCCGUUCGGAUCUGCACUUCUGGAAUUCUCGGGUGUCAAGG` is reported as -0.971.
The log2 enrichment of `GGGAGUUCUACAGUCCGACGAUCCUUCUUGCAUGCUCGGCUCCGGACAGCUACGCUUCGGCAUGACGCAGACGGGCAGGCCACCCUGUUGAACCUCCUGCUGCGGAAUUACCUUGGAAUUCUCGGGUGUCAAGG` is reported as 0.249.
For `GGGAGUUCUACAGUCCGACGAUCCACAGACAACACGCACCCACACAGACACAGAGGGAAGGGGUUGGGAUGGGGACAGGGUGCACAGCAGGACGGGGUAGGACCCCAGCCCCUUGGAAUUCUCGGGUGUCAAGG`, the log2 enrichment was 0.0683.

Sample 4
Target: CCNB2, cyclin fold, Cln2 fusion (human)
Method: yeast growth competition, sequencing
Matrix: yeast
Setting: strong parent motif
Reference: not given
Direction: higher = stronger binding
Parent: viral docking peptide; TSVRRALFTGGSD
`L7G` — result for “normalised enrichment score”: 0.154.
`T9Y`: “normalised enrichment score” 0.914.
Under “normalised enrichment score”, `G10R` is recorded as 0.256.
For `T9A`, “normalised enrichment score” read 0.498.
Under “normalised enrichment score”, `S12L` is recorded as 0.597.
For `G11K`, “normalised enrichment score” read 0.786.
`R5L`: “normalised enrichment score” -0.219.
For `G10K`, “normalised enrichment score” read 0.469.
For `V3P`, “normalised enrichment score” read -0.0847.
Under “normalised enrichment score”, `V3Y` is recorded as 0.562.
`S12R` — result for “normalised enrichment score”: 0.969.
`V3E`: “normalised enrichment score” -0.0237.
`R4V`: “normalised enrichment score” 0.101.
For `S2V`, “normalised enrichment score” read 0.601.
For `F8M`, “normalised enrichment score” read 0.383.
For `A6D`, “normalised enrichment score” read 0.179.
`L7P` — result for “normalised enrichment score”: 0.00356.
Under “normalised enrichment score”, `F8E` is recorded as -0.0698.
`S12E`: “normalised enrichment score” 1.22.
`A6M` — result for “normalised enrichment score”: 0.53.
`R4E` — result for “normalised enrichment score”: 0.0457.
Under “normalised enrichment score”, `T9C` is recorded as 0.708.
`L7V`: “normalised enrichment score” 0.39.
`V3D` — result for “normalised enrichment score”: -0.128.
`S2D`: “normalised enrichment score” 0.481.

Sample 5
Molecule: HSPD1 (Homo sapiens, UniProt P10809)
Method: cross-linking MS
Matrix: cell fractions
It gave “E386 to K523” for cross-linked residues (NT5C1B (Homo sapiens, UniProt Q96P26); together with: DMTMM).
It gave “D100 to E3289” for cross-linked residues (DNAH2 (Homo sapiens, UniProt Q9P225); together with: DHSO).
For MDH2 (Homo sapiens, UniProt P40926); together with: DSSO: cross-linked residues read “K156 to K307”.
ATP5F1A (Homo sapiens, UniProt P25705); together with: DSSO — cross-linked residues: “K133 to K531”.
The cross-linked residues was “K75 to K434” (UPF3A (Homo sapiens, UniProt Q9H1J1); together with: DSSO).
The cross-linked residues was “D100 to E542” (ANKRD35 (Homo sapiens, UniProt Q8N283); together with: DHSO).
For IRF2BPL (Homo sapiens, UniProt Q9H1B7); together with: DHSO: cross-linked residues read “D423 to E356”.
For FAM120B (Homo sapiens, UniProt Q96EK7); together with: DMTMM: cross-linked residues read “D531 to K97”.

Other studies, line by line
Tested at: 10 µM
`CC(=O)N1CCC(c2ccc(C(=O)NC3=NCCN3)cc2C(F)(F)F)CC1` gave an inhibition of 11.8% (SLC6A4 (Homo sapiens, UniProt P31645); ligand displacement).
`CNC(=O)c1cc(C(=O)NC2CC2)cn(Cc2ccccc2)c1=O` gave an inhibition of 13.2% (CHRM2 (Homo sapiens, UniProt P08172); binding, radioligand binding).

Some of these lines once more (sample 1):
`HPYVFCALL` — result for binding: “inactive”.
`SLLHESTLK`: binding “inactive”.
`RADEINAIL` — result for binding: “inactive”.
For `RLDARLQVL`, binding read “inactive”.
